Measured values pooled from the literature.
Parts stem from different laboratories: compare values within a part only.
UniProt Q8TF76, sequence (whole entry, looked up): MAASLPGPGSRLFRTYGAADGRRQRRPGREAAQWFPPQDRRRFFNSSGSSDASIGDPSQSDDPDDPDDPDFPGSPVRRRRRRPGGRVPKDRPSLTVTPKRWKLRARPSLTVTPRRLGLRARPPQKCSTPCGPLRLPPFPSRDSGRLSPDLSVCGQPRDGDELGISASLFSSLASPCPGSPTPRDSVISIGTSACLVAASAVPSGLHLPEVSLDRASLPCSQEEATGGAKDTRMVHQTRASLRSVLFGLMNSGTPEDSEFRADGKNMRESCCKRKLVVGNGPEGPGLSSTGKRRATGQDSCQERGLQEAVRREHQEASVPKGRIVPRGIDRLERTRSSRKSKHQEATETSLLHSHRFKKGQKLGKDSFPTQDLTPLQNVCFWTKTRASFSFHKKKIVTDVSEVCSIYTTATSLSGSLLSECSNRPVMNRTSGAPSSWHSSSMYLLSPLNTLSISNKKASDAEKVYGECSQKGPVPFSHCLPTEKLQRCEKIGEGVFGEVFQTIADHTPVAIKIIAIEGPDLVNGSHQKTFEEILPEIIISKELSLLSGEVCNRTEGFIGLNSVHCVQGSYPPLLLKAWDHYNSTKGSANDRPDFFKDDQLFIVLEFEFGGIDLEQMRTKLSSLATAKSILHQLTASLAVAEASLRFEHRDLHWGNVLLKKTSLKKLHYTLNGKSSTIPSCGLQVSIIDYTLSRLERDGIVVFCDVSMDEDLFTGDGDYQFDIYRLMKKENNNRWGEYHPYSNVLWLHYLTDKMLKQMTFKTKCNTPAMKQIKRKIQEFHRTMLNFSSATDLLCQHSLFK
UniProt P11309, sequence (whole entry, looked up): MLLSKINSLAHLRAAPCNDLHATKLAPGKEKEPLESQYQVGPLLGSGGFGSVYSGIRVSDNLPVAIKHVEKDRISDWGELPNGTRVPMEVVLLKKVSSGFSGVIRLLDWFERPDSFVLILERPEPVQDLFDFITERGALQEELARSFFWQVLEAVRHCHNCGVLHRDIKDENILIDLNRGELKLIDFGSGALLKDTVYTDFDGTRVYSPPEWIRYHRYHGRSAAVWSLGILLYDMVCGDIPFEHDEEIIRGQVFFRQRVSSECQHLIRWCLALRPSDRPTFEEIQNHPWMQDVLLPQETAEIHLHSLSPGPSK
UniProt Q9H1R3, sequence (whole entry, looked up): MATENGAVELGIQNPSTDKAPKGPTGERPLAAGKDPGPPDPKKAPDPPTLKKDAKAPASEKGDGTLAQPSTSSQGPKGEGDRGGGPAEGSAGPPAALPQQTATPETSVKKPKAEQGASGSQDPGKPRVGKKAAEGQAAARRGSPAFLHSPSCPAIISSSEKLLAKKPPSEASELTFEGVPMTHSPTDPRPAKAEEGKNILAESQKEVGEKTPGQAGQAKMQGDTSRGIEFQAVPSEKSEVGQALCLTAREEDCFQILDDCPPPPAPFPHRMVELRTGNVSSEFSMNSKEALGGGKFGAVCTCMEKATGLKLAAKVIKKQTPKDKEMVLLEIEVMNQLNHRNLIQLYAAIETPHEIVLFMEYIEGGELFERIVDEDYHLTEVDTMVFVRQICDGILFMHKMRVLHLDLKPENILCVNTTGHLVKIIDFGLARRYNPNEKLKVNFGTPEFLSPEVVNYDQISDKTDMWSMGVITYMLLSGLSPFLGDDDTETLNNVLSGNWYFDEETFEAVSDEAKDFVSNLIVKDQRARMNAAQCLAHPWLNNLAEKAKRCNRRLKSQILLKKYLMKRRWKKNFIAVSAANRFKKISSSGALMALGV
UniProt Q9Y5S2, sequence (whole entry, looked up): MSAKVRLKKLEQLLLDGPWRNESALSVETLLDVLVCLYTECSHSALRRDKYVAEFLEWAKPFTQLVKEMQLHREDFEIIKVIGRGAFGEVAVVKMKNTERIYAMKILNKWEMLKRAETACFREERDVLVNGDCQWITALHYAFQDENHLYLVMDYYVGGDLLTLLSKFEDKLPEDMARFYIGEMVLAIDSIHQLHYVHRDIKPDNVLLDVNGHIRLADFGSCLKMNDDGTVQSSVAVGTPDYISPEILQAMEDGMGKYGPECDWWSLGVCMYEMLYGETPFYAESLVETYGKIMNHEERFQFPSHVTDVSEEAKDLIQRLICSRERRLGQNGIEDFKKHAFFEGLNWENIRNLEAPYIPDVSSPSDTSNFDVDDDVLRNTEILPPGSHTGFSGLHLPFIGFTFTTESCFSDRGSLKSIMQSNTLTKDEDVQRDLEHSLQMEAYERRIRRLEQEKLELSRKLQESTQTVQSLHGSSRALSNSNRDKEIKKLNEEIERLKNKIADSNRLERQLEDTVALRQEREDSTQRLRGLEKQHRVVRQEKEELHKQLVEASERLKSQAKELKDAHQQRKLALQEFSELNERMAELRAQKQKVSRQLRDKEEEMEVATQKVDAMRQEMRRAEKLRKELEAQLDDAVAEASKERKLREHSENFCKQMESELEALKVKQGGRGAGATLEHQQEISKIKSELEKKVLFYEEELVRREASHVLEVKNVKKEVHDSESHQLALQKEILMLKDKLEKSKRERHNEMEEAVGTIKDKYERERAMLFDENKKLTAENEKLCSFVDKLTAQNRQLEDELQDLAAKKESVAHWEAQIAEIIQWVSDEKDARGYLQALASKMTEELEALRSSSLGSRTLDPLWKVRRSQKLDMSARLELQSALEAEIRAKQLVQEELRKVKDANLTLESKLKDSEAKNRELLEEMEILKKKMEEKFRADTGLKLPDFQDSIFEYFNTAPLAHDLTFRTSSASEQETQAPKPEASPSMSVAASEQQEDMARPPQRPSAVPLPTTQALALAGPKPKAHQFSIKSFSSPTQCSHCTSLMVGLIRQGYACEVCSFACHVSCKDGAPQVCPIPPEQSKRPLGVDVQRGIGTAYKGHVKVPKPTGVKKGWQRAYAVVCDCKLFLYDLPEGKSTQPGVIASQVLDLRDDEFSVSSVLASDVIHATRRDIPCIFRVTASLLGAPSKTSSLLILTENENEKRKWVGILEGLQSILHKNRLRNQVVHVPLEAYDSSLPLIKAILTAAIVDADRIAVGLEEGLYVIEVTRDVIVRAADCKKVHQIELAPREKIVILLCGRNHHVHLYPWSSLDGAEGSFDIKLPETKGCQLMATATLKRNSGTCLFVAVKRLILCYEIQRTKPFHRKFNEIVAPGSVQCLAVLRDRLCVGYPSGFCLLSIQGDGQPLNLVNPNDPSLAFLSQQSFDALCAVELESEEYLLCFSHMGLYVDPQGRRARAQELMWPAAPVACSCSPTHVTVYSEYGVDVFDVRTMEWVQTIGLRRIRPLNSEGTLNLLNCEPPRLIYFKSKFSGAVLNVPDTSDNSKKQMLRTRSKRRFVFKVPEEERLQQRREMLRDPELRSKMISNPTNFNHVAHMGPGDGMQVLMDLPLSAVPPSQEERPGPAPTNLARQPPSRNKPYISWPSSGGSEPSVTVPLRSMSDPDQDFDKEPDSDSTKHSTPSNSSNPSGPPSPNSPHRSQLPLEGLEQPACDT

Block 1
Target: Calcium/calmodulin-dependent protein kinase type II subunit alpha (CAMK2A, Homo sapiens, UniProt Q9UQM7)
UniProt Q9UQM7, sequence (whole entry, looked up): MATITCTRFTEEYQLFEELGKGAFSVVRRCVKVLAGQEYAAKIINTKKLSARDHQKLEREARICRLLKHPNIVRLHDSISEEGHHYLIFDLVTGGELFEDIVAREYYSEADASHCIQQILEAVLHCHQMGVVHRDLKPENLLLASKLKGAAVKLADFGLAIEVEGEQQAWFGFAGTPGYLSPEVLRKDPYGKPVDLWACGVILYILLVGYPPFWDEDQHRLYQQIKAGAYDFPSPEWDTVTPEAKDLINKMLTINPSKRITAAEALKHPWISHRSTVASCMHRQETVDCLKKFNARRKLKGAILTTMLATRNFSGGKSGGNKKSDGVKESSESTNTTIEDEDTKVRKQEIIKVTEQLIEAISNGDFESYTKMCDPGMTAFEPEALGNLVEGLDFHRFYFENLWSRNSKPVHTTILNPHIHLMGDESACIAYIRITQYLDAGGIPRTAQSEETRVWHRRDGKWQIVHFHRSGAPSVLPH
Read-out: enzyme activity
Action: inhibitor
Concentration: 10 µM
SMILES | inhibition [%]
CC(CC(=O)C[C@@H](C)[C@H]1CC(=O)[C@@]2(C)C3=C(C(=O)[C@@H](O)[C@]12C)[C@@]1(C)CC[C@H](O)C(C)(C)[C@@H]1C[C@@H]3O)C(=O)O (stereo partly shown) | 5
Cc1cc(C#N)cc(C)c1Oc1nc(Nc2ccc(C#N)cc2)nc(N)c1Br | -8
CS(=O)(=O)c1ccc([C@@H](O)[C@@H](CF)NC(=O)C(Cl)Cl)cc1 | -2
CC(C)(C)c1ccc(O)c(C(C)(C)C)c1 | -13
OC[C@@H](O)CN1CCN(c2ccccc2)CC1 | -1
CCC/C=C/C=O | 8
C[C@H](CC[C@@H](O)C(C)(C)O)[C@H]1CC[C@@]2(C)[C@@H]3CC=C4[C@@H](CC[C@H](O[C@@H]5O[C@H](CO[C@@H]6O[C@H](CO)[C@@H](O)[C@H](O)[C@H]6O)[C@@H](O)[C@H](O)[C@H]5O)C4(C)C)[C@]3(C)[C@H](O)C[C@]12C | 0
COc1cc(/C=C/C(=O)NCCc2c[nH]c3ccc(O)cc23)ccc1O | 16
Cc1cnc(C)c(C)n1 | -14
NCCOP(=O)(O)O | 11

Block 2
Compound: C=CCc1ccc(O)c(-c2ccc(O)c(CC=C)c2)c1
Read-out: chloride current
ANO1 del476-501/F628A: Anoctamin-1 (ANO1, Homo sapiens, UniProt Q5XXA6, del476-501/F628A)
UniProt Q5XXA6, sequence (whole entry, unmodified, looked up): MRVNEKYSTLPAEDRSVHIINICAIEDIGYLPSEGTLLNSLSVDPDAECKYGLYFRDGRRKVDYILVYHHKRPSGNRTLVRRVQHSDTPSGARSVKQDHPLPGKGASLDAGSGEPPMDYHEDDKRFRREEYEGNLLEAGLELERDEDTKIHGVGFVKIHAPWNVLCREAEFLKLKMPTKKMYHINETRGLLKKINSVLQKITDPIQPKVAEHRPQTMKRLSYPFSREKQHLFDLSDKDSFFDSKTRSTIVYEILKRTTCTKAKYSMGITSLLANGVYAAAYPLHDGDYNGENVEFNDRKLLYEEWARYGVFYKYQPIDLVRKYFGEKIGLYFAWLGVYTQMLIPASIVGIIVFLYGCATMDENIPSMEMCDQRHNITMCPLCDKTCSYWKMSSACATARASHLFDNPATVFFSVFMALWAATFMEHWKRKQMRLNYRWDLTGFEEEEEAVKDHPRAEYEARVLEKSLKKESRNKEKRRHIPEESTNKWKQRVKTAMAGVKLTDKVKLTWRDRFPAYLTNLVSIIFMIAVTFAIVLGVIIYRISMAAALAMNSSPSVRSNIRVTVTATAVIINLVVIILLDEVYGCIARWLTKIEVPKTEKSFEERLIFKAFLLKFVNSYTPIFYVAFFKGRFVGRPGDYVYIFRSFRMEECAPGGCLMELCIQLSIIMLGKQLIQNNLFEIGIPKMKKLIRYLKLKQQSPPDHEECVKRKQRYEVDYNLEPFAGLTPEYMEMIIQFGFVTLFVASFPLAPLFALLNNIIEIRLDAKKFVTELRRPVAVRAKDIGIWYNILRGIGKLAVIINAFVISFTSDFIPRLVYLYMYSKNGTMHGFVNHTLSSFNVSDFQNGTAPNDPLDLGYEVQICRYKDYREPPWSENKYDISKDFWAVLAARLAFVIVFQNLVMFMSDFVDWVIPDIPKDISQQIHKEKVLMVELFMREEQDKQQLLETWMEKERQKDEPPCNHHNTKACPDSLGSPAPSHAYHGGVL
ANO1 del476-501: Anoctamin-1 (ANO1, Homo sapiens, UniProt Q5XXA6, del476-501)
target | action | technique | concentration | notes | together with | normalized current
ANO1 del476-501/F628A | – | whole-cell voltage clamp | 100 µM | I-V at 0 mV | 4 µM Ca2+ | -0.0017
ANO1 del476-501/F628A | – | whole-cell voltage clamp | 3 µM | concentration-response at 100 mV | 4 µM Ca2+ | 0.853
Anoctamin-1 (ANO1, Homo sapiens, UniProt Q5XXA6, del476-501/K629A) | – | inside-out patch clamp | 10 µM | membrane voltage 60 mV | – | 0.354
ANO1 del476-501 | – | whole-cell voltage clamp | 10 µM | wild type, I-V at 40 mV | 4 µM Ca2+ | 0.114
ANO1 del476-501/F628A | – | whole-cell voltage clamp | 1 µM | I-V at -40 mV | 4 µM Ca2+ | -0.291
Anoctamin-1 (ANO1, Homo sapiens, UniProt Q5XXA6, del476-501/E659A) | – | inside-out patch clamp | 10 µM | membrane voltage -40 mV | – | -0.406
ANO1 del476-501/F628A | – | whole-cell voltage clamp | 3 µM | concentration-response at -40 mV | 4 µM Ca2+ | -0.354
ANO1 del476-501 | – | whole-cell voltage clamp | 10 µM | wild type, I-V at 0 mV | 4 µM Ca2+ | -0.00066
Anoctamin-1 (ANO1, Homo sapiens, UniProt Q5XXA6, del476-501/R631A) | inhibitor | whole-cell voltage clamp | 10 µM | R605A mutant | – | 0.198
ANO1 del476-501/F628A | – | whole-cell voltage clamp | 3 µM | I-V at 40 mV | 4 µM Ca2+ | 0.297
ANO1 del476-501 | – | whole-cell voltage clamp | 10 µM | wild type, concentration-response at 100 mV | 4 µM Ca2+ | 0.299
ANO1 del476-501/F628A | – | whole-cell voltage clamp | 30 µM | I-V at -80 mV | 4 µM Ca2+ | -0.332
Anoctamin-1 (ANO1, Homo sapiens, UniProt Q5XXA6, del476-501/R541A) | – | inside-out patch clamp | 10 µM | membrane voltage 40 mV | – | 0.245

Block 3
Structure (SMILES): Cc1sc(C(=O)NC2COC2)cc1-n1cc(NC(=O)Nc2c(F)cccc2Cl)cn1
Read-out: enzyme activity
Concentration: 10 µM
Baseline: untreated control
target | remaining activity [%]
G protein-coupled receptor kinase 3 (GRK3, Homo sapiens, UniProt P35626) | 105
Protein-tyrosine kinase 2-beta (PTK2B, Homo sapiens, UniProt Q14289) | 102
Cytoplasmic tyrosine-protein kinase BMX (BMX, Homo sapiens, UniProt P51813) | 91.9
Cyclin-dependent kinase 4, with cyclin D1 (CDK4, Homo sapiens, UniProt P11802) | 72.9
Dual specificity mitogen-activated protein kinase kinase 5 (MAP2K5, Homo sapiens, UniProt Q13163) | 89.6
Serine/threonine-protein kinase PAK 1 (PAK1, Homo sapiens, UniProt Q13153) | 98.2
Tyrosine-protein kinase Mer (MERTK, Homo sapiens, UniProt Q12866) | 101
Serine/threonine-protein kinase pim-1 (PIM1, Homo sapiens, UniProt P11309) | 93.1
Mitogen-activated protein kinase 7 (MAPK7, Homo sapiens, UniProt Q13164) | 95
Cyclin-dependent kinase 16, with cyclin Y (CDK16, Homo sapiens, UniProt Q00536) | 93.3
MAP kinase-interacting serine/threonine-protein kinase 1 (MKNK1, Homo sapiens, UniProt Q9BUB5) | 93.2
SRSF protein kinase 3 (SRPK3, Homo sapiens, UniProt Q9UPE1) | 92.7

Block 4
Compound: CN(C(=O)c1ccccc1)c1cc(N(C)c2ccc3c(c2)CCc2ccc(C(=O)NCCN4CCOCC4)cc2C3=O)ccc1F
Concentration: 1 µM
target | read-out | technique | remaining binding [%]
Epidermal growth factor receptor (EGFR, Homo sapiens, UniProt P00533, T790M) | cell-free assay | competition with immobilised ligand | 87
Serine/threonine-protein kinase TAO3 (TAOK3, Homo sapiens, UniProt Q9H2K8) | cell-free assay | competition with immobilised ligand | 88
Serine/threonine-protein kinase D3 (PRKD3, Homo sapiens, UniProt O94806) | cell-free assay | competition with immobilised ligand | 88
Mitogen-activated protein kinase kinase kinase 6 (MAP3K6, Homo sapiens, UniProt O95382) | cell-free assay | competition with immobilised ligand | 77
Serine/threonine-protein kinase haspin (HASPIN, Homo sapiens, UniProt Q8TF76) | cell-free assay | competition with immobilised ligand | 100
Bone morphogenetic protein receptor type-1B (BMPR1B, Homo sapiens, UniProt O00238) | cell-free assay | competition with immobilised ligand | 100
Mitogen-activated protein kinase kinase kinase 19 (MAP3K19, Homo sapiens, UniProt Q56UN5) | cell-free assay | competition with immobilised ligand | 100
Epidermal growth factor receptor (EGFR, Homo sapiens, UniProt P00533, del747-750/T751S) | cell-free assay | competition with immobilised ligand | 100
Cyclin-dependent kinase 19 (CDK19, Homo sapiens, UniProt Q9BWU1) | – | competition binding | 85
Serine/threonine-protein kinase 32C (STK32C, Homo sapiens, UniProt Q86UX6) | cell-free assay | competition with immobilised ligand | 95
Serine/threonine-protein kinase/endoribonuclease IRE1 (ERN1, Homo sapiens, UniProt O75460) | cell-free assay | competition with immobilised ligand | 86
Myosin light chain kinase 2, skeletal/cardiac muscle (MYLK2, Homo sapiens, UniProt Q9H1R3) | cell-free assay | competition with immobilised ligand | 100
Ephrin type-A receptor 8 (EPHA8, Homo sapiens, UniProt P29322) | cell-free assay | competition with immobilised ligand | 100
Receptor-type tyrosine-protein kinase FLT3, autoinhibited (FLT3, Homo sapiens, UniProt P36888) | cell-free assay | competition with immobilised ligand | 90
Aurora kinase C (AURKC, Homo sapiens, UniProt Q9UQB9) | cell-free assay | competition with immobilised ligand | 95
Activin receptor type-1B (ACVR1B, Homo sapiens, UniProt P36896) | cell-free assay | competition with immobilised ligand | 89
Hepatocyte growth factor receptor (MET, Homo sapiens, UniProt P08581, M1250T) | cell-free assay | competition with immobilised ligand | 91
Serine/threonine-protein kinase STK11 (STK11, Homo sapiens, UniProt Q15831) | cell-free assay | competition with immobilised ligand | 100
Serine/threonine-protein kinase SIK2 (SIK2, Homo sapiens, UniProt Q9H0K1) | cell-free assay | competition with immobilised ligand | 100
Serine/threonine-protein kinase MRCK beta (CDC42BPB, Homo sapiens, UniProt Q9Y5S2) | cell-free assay | competition with immobilised ligand | 97
Ribosomal protein S6 kinase alpha-2, N-terminal kinase domain (RPS6KA2, Homo sapiens, UniProt Q15349) | cell-free assay | competition with immobilised ligand | 100
SRSF protein kinase 1 (SRPK1, Homo sapiens, UniProt Q96SB4) | cell-free assay | competition with immobilised ligand | 87
Mitogen-activated protein kinase kinase kinase 3 (MAP3K3, Homo sapiens, UniProt Q99759) | cell-free assay | competition with immobilised ligand | 100

Repeated from above (block 2):
target | action | technique | concentration | notes | together with | normalized current
Anoctamin-1 (ANO1, Homo sapiens, UniProt Q5XXA6, del476-501/E659A) | – | inside-out patch clamp | 10 µM | membrane voltage -40 mV | – | -0.406
ANO1 del476-501/F628A | – | whole-cell voltage clamp | 3 µM | I-V at 40 mV | 4 µM Ca2+ | 0.297
ANO1 del476-501 | – | whole-cell voltage clamp | 10 µM | wild type, concentration-response at 100 mV | 4 µM Ca2+ | 0.299
ANO1 del476-501/F628A | – | whole-cell voltage clamp | 1 µM | I-V at -40 mV | 4 µM Ca2+ | -0.291
Anoctamin-1 (ANO1, Homo sapiens, UniProt Q5XXA6, del476-501/K629A) | – | inside-out patch clamp | 10 µM | membrane voltage 60 mV | – | 0.354
